Measured values of several laboratories.
Organism: Staphylococcus aureus

For `CC[C@H](C)[C@H](NC(=O)[C@H](CCC(N)=O)NC(=O)[C@H](Cc1ccccc1)NC(=O)[C@H](CC(N)=O)NC(=O)[C@H](CCCCN)NC(=O)[C@H](CC(C)C)NC(=O)[C@H](CCCNC(=N)N)NC(=O)[C@H](CCCCN)NC(=O)[C@H](CCCCN)NC(=O)[C@@H](NC(=O)[C@H](CO)NC(=O)[C@H](CCCCN)NC(=O)CNC(=O)[C@H](CC(C)C)NC(=O)[C@H](CCCCN)NC(=O)[C@H](CCCCN)NC(=O)[C@H](CC(C)C)NC(=O)[C@H](CCCCN)NC(=O)[C@H](CCCCN)NC(=O)[C@H](CCCNC(=N)N)NC(=O)[C@H](CC(C)C)NC(=O)CNC(=O)[C@@H](N)CCCNC(=N)N)[C@@H](C)CC)C(=O)NCC(=O)N[C@@H](Cc1ccccc1)C(=O)N[C@@H](CO)C(=O)N[C@H](C(=O)N1CCC[C@H]1C(=O)N[C@@H](Cc1ccccc1)C(=O)N[C@@H](C)C(=O)NCC(=O)O)C(C)C`, the MIC was 35.7 µM (broth microdilution; ATCC 29213).
The MIC of `COc1c(NC(=O)c2ccc(NC(=O)[C@H](Cc3c[nH]nn3)NC(=O)c3ccc(NC(=O)/C(C)=C/c4ccc(O)cc4)cc3)cc2)ccc(C(=O)Nc2ccc(C(=O)O)cc2)c1O` is reported as 2 µg/mL (broth microdilution; ciprofloxacin-sensitive).
For `CC[C@H]1OC(=O)[C@H](C)[C@@H](OC(=O)c2ccc([N+](=O)[O-])cc2)[C@H](C)[C@@H](O[C@@H]2O[C@H](C)C[C@H](N(C)C)[C@H]2O)[C@](C)(OC)C[C@@H](C)C(=O)[C@H](C)[C@@H](O)[C@]1(C)O`, the MIC was over 64 µg/mL (BAA-977).
The MIC of `N=C(N)NCCC[C@@H]1NC(=O)[C@@H](CCCNC(=N)N)NC(=O)[C@H](CCCNC(=N)N)NC(=O)[C@@H](C(c2ccccc2)c2ccccc2)NC(=O)[C@@H](C(c2ccccc2)c2ccccc2)NC(=O)[C@@H](C(c2ccccc2)c2ccccc2)NC(=O)[C@@H](CCCNC(=N)N)NC1=O` is reported as 4 µg/mL (ATCC 29213, MSSA).
`CC[C@H]1OC(=O)[C@H](C)[C@@H](OC(=O)Cc2ccccc2Cl)[C@H](C)[C@@H](O[C@@H]2O[C@H](C)C[C@H](N(C)C)[C@H]2O)[C@](C)(OC)C[C@@H](C)C(=O)[C@H](C)[C@@H](O)[C@]1(C)O` has an MIC of 2 µg/mL (microbial growth; BAA976).
For `C/C(=C\c1ccc(O)cc1)C(=O)Nc1ccc(C(=O)N[C@@H](Cc2c[nH]nn2)C(=O)Nc2ccc(C(=O)Nc3ccc(C(=O)Nc4ccc(C(=O)O)cc4)c(O)c3)cc2)cc1`, the MIC was 32 µg/mL (broth microdilution; ciprofloxacin-sensitive).
`CC[C@H]1OC(=O)[C@H](C)[C@@H](O[C@H]2C[C@@](C)(OC)[C@@H](O)[C@H](C)O2)[C@H](C)[C@@H](O[C@@H]2O[C@H](C)C[C@H](N(C)C)[C@H]2O)[C@](C)(OC)C[C@@H](C)C(=O)[C@H](C)[C@@H](O)[C@]1(C)O` has an MIC of 0.5 µg/mL (DSM 20231 MSSA).
`CC1C=CC=CC(C)C2C=CC3CC(C)(O)C(Cl)C(C)C3C2C(=O)C(Cl)(Cl)C(=O)C(C)C(=O)O1` (stereo not drawn) gave an MIC of 0.1 µg/mL (MRSA clinical isolate; OXA resistant).
For `CCCCCCCCCCn1cc[n+](CCCCCCCCOc2cc(OCCCCCCCC[n+]3ccn(CCCCCCCCCC)c3)cc(OCCCCCCCC[n+]3ccn(CCCCCCCCCC)c3)c2)c1.[Br-].[Br-].[Br-]`, the MIC was 2 µM (CA-MRSA USA300-0114).
For `NCC(=O)N1CCN(c2cc3c(cc2F)c(=O)c(C(=O)O)cn3C2CC2)CC1`, the MIC was 5 µM (microbial growth, broth dilution; NEWMAN).
For `C#CCOc1ccc(CN[C@@]2(C)C[C@H](O[C@H]3[C@H](Oc4c5cc6cc4Oc4ccc(cc4Cl)[C@@H](O)[C@@H](NC(=O)[C@@H](CC(C)C)NC)C(=O)N[C@@H](CC(N)=O)C(=O)N[C@H]6C(=O)N[C@H]4C(=O)N[C@H](C(=O)N[C@H](C(=O)NCC(N)=O)c6cc(O)cc(O)c6-c6cc4ccc6O)[C@H](O)c4ccc(c(Cl)c4)O5)O[C@H](CO)[C@@H](O)[C@@H]3O)O[C@@H](C)[C@H]2O)cc1OC`, the MIC was 0.5 µg/mL (broth microdilution; MRSA USA300, cation-adjusted Mueller-Hinton broth; 20 to 24 h, 37 °C, 0.002% polysorbate 80).
`CCCCCCCC[N+](C)(C)CCCCCCOc1cc(OCCCCCC[N+](C)(C)CCCCCCCC)cc(OCCCCCC[N+](C)(C)CCCCCCCC)c1.[Br-].[Br-].[Br-]` has an MIC of 0.5 µM (CA-MRSA USA300-0114).
`CCCC/C=C/C(=O)N[C@@H](Cc1cc(F)cc(F)c1)C(=O)N[C@H]1COC(=O)[C@@H]2CCCN2C(=O)[C@H](C)NC(=O)[C@@H]2C[C@@H](C)CCN2C(=O)[C@@H]2CCCN2C1=O` has an MIC of 0.39 µg/mL (microbial growth, broth dilution).
The MIC of `CCCCOC(=O)c1ccc(NC(=O)Nc2ccc(Cl)c(C(F)(F)F)c2)cc1` is reported as 0.6 µM (microbial growth; NCTC8325).
The MIC of `CC[C@H]1OC(=O)[C@H](C)[C@@H](OC(=O)Cc2ccc(OC(F)(F)F)cc2)[C@H](C)[C@@H](O[C@@H]2O[C@H](C)C[C@H](N(C)C)[C@H]2O)[C@](C)(OC)C[C@@H](C)C(=O)[C@H](C)[C@@H](O)[C@]1(C)O` is reported as over 64 µg/mL (ATCC 43300 MRSA).
`CCCCCCn1cc[n+](CCCCOc2cc(OCCCC[n+]3ccn(CCCCCC)c3)cc(OCCCC[n+]3ccn(CCCCCC)c3)c2)c1.[Br-].[Br-].[Br-]` gave an MIC of 8 µM (HA-MRSA ATCC 33591).
For `CC[C@H]1OC(=O)[C@H](C)[C@@H](OC(=O)Cc2c(F)cc([N+](=O)[O-])cc2F)[C@H](C)[C@@H](O[C@@H]2O[C@H](C)C[C@H](N(C)C)[C@H]2O)[C@](C)(OC)C[C@@H](C)C(=O)[C@H](C)[C@@H](O)[C@]1(C)O`, the MIC was 128 µg/mL (ATCC 43300 MRSA).
`COc1c(NC(=O)c2ccc(NC(=O)[C@H](Cc3c[nH]nn3)NC(=O)c3ccc(NC(=O)/C(C)=C/c4ccc(O)cc4)cc3)cc2)ccc(C(=O)Nc2ccc(C(=O)O)c(O)c2)c1O` has an MIC of 1 µg/mL (broth microdilution; ciprofloxacin-sensitive).
`CCCCCC(=O)Oc1c(C)c(OC)c2c(/C=C/c3ccccc3)c(CCCC)c(=O)oc2c1C` gave an MIC of 2500 µg/mL (microbial growth, broth dilution; ATCC25923).
`CCCCCCCCCCn1cc[n+](CCCCCCCCCCOc2cc(OCCCCCCCCCC[n+]3ccn(CCCCCCCCCC)c3)cc(OCCCCCCCCCC[n+]3ccn(CCCCCCCCCC)c3)c2)c1.[Br-].[Br-].[Br-]` has an MIC of 16 µM (SH1000 MSSA).
`CC[C@H]1OC(=O)[C@H](C)[C@@H](OC(=O)c2ccc(N)cc2)[C@H](C)[C@@H](O[C@@H]2O[C@H](C)C[C@H](N(C)C)[C@H]2O)[C@](C)(OC)C[C@@H](C)C(=O)[C@H](C)[C@@H](O)[C@]1(C)O` has an MIC of over 256 µg/mL (microbial growth; BAA976).
For `CCCCCCCCCCCC[N+](C)(C)CCCCCCOc1cc(OCCCCCC[N+](C)(C)CCCCCCCCCCCC)cc(OCCCCCC[N+](C)(C)CCCCCCCCCCCC)c1.[Br-].[Br-].[Br-]`, the MIC was 4 µM (CA-MRSA USA300-0114).
For `CCOc1c(NC(=O)c2ccc(NC(=O)c3ccc(NC(=O)[C@H](Cc4c[nH]nn4)NC(=O)c4ccc(NC(=O)/C(C)=C/c5ccc(O)cc5)cc4)cc3)c(OC)c2O)ccc(C(=O)O)c1O`, the MIC was 0.125 µg/mL (broth microdilution; ciprofloxacin-resistant).
For `CCCCCCCC[N+](C)(C)CCCCCCCCCCOc1cc(OCCCCCCCCCC[N+](C)(C)CCCCCCCC)cc(OCCCCCCCCCC[N+](C)(C)CCCCCCCC)c1.[Br-].[Br-].[Br-]`, the MIC was 2 µM (CA-MRSA USA300-0114).
The MIC of `CC[C@H]1OC(=O)[C@H](C)[C@@H](OC(=O)Cc2c(F)cccc2F)[C@H](C)[C@@H](O[C@@H]2O[C@H](C)C[C@H](N(C)C)[C@H]2O)[C@](C)(OC)C[C@@H](C)C(=O)[C@H](C)[C@@H](O)[C@]1(C)O` is reported as over 128 µg/mL (ATCC 43300 MRSA).
`CCN1CCC(CCNCc2cc3ccccc3nc2SCc2ccccc2)CC1` gave an MIC of 64 µg/mL (microbial growth, broth dilution).
`CCC(CC)c1cc(CCN2CCCNCC2)nc(-c2cccnc2)n1` gave an MIC of over 16 µg/mL (microbial growth, broth dilution; ATCC29213).
The MIC of `Oc1c(Br)cc(Br)c2nc3cc(C(F)(F)F)ccc3nc12` is reported as 0.05 µM (129 MRSA clinical isolate).
`CCCCCCCCCC(=O)Oc1c(C)c(OC)c2c(c1C)OC(=O)C(CCCCCCCC)C2(O)C=Cc1ccccc1` (stereo not drawn) has an MIC of 5000 µg/mL (microbial growth, broth dilution; ATCC25923).
`CCCCCC[N+](C)(C)CCCCCCOc1cc(OCCCCCC[N+](C)(C)CCCCCC)cc(OCCCCCC[N+](C)(C)CCCCCC)c1.[Br-].[Br-].[Br-]` gave an MIC of 0.5 µM (SH1000 MSSA).
`CN[C@H](CC(C)C)C(=O)N[C@H]1C(=O)N[C@@H](CC(N)=O)C(=O)N[C@H]2C(=O)N[C@H]3C(=O)N[C@H](C(=O)N[C@H](C(=O)NCc4cn(CCCCC(=O)N[C@H](C(=O)N[C@@H](CCN)C(=O)N[C@H]5CCNC(=O)[C@H]([C@@H](C)O)NC(=O)[C@H](CCN)NC(=O)[C@H](CCN)NC(=O)[C@H](CC(C)C)NC(=O)[C@@H](CC(C)C)NC(=O)[C@H](CCN)NC5=O)[C@@H](C)O)nn4)c4cc(O)cc(O)c4-c4cc3ccc4O)[C@H](O)c3ccc(c(Cl)c3)Oc3cc2cc(c3O[C@@H]2O[C@H](CO)[C@@H](O)[C@H](O)[C@H]2O[C@H]2C[C@](C)(N)[C@H](O)[C@H](C)O2)Oc2ccc(cc2Cl)[C@H]1O` has an MIC of 0.25 µg/mL (broth microdilution; MSSA ATCC 29213, cation-adjusted Mueller-Hinton broth; 20 to 24 h, 37 °C, 0.002% polysorbate 80).
For `CCCCCCCCn1cc[n+](CCCCCCOc2cc(OCCCCCC[n+]3ccn(CCCCCCCC)c3)cc(OCCCCCC[n+]3ccn(CCCCCCCC)c3)c2)c1.[Br-].[Br-].[Br-]`, the MIC was 1 µM (SH1000 MSSA).
With `CC(C)C[C@@H]1NC(=O)[C@H](CCCN)NC(=O)[C@H](C(C)C)NC(=O)[C@@H]2CCCN2C(=O)[C@@H](Cc2ccccc2)NC(=O)[C@H](CC(C)C)NC(=O)[C@H](CCCN)NC(=O)[C@H](C(C)C)NC(=O)[C@@H]2CCCN2C(=O)[C@@H](Cc2ccccc2)NC1=O` the MIC was 6.2 µg/mL (NCTC 8325, Mueller Hinton broth; 21 h, 37 °C).

Repeated from above:
For `CCCCCCCC[N+](C)(C)CCCCCCCCCCOc1cc(OCCCCCCCCCC[N+](C)(C)CCCCCCCC)cc(OCCCCCCCCCC[N+](C)(C)CCCCCCCC)c1.[Br-].[Br-].[Br-]`, the MIC was 2 µM (CA-MRSA USA300-0114).
`CCCCCCCC[N+](C)(C)CCCCCCOc1cc(OCCCCCC[N+](C)(C)CCCCCCCC)cc(OCCCCCC[N+](C)(C)CCCCCCCC)c1.[Br-].[Br-].[Br-]` has an MIC of 0.5 µM (CA-MRSA USA300-0114).
